Results pooled from the literature.
A part holds a random share of what one study measured. Values joined by “and” are separate records of one study, mostly repeats; a detail may differ. pIC50: −log10 of the molar value.
Chain of UniProt P53667 (whole entry, looked up): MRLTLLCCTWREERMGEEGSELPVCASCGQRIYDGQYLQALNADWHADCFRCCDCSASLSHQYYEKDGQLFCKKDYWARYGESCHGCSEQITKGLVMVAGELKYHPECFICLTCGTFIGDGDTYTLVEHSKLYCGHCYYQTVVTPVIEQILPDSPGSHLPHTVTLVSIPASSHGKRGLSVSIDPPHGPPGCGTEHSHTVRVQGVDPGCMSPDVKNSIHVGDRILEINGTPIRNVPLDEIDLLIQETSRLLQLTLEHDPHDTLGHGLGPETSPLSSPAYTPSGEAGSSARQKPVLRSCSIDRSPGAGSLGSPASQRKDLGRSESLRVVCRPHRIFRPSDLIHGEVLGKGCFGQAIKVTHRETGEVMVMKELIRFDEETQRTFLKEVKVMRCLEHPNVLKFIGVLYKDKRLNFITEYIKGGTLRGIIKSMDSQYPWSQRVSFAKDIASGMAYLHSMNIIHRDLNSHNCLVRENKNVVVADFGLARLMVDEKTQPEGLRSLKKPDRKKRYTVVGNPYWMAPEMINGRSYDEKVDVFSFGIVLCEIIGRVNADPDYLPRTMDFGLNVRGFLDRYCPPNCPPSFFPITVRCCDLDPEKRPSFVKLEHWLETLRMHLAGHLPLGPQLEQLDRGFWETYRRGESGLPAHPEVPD
Chain of UniProt O95835 (whole entry, looked up): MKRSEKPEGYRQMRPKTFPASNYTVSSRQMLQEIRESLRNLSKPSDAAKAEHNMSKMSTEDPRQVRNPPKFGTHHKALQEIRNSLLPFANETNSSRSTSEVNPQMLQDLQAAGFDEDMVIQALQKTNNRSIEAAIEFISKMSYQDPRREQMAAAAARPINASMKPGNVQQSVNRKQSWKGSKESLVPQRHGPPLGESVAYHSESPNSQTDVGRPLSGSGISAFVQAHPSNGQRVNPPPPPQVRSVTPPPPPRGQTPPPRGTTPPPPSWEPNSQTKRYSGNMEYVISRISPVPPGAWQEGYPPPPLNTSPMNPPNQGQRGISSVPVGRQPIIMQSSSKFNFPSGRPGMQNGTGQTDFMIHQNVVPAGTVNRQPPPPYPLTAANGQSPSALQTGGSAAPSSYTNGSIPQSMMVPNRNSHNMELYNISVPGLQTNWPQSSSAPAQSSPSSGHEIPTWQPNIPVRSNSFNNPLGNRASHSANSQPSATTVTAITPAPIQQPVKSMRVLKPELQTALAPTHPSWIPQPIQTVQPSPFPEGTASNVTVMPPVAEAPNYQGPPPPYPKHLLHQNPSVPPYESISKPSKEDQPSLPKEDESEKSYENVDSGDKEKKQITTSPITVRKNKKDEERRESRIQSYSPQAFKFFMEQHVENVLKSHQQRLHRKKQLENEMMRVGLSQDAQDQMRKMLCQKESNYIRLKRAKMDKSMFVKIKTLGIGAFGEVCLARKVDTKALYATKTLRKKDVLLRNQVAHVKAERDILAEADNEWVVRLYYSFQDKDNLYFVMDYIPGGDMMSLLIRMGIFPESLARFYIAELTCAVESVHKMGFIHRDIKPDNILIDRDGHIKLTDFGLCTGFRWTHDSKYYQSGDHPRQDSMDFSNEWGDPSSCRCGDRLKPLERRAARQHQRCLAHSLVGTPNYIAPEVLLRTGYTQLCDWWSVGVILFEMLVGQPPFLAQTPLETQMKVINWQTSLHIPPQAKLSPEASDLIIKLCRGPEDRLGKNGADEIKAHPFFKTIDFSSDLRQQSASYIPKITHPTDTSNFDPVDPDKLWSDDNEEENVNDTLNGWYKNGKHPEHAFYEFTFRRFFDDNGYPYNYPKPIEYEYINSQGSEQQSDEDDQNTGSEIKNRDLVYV
Chain of UniProt P33981 (whole entry, looked up): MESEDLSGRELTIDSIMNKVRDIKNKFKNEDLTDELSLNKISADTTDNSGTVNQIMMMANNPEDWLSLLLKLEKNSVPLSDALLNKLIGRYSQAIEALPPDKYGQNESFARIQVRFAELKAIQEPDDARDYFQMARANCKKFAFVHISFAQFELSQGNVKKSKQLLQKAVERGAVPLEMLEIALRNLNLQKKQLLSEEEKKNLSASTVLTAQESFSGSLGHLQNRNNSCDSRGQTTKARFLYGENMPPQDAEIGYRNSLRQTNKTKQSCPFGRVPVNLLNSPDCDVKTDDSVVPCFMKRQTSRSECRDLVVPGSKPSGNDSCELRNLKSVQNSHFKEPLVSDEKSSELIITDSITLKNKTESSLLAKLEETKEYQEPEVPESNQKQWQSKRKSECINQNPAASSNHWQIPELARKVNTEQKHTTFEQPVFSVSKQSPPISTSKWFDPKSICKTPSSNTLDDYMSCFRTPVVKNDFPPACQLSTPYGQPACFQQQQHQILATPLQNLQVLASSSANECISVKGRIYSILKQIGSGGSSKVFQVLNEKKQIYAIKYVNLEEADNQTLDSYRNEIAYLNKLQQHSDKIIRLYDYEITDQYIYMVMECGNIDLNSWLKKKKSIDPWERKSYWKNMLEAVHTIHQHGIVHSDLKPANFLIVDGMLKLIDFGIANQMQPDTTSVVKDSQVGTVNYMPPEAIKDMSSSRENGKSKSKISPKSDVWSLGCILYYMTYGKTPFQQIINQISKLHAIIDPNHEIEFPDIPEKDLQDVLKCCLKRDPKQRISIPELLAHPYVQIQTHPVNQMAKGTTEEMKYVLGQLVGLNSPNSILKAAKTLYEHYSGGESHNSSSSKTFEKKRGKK
Chain of UniProt Q56UN5 (whole entry, looked up): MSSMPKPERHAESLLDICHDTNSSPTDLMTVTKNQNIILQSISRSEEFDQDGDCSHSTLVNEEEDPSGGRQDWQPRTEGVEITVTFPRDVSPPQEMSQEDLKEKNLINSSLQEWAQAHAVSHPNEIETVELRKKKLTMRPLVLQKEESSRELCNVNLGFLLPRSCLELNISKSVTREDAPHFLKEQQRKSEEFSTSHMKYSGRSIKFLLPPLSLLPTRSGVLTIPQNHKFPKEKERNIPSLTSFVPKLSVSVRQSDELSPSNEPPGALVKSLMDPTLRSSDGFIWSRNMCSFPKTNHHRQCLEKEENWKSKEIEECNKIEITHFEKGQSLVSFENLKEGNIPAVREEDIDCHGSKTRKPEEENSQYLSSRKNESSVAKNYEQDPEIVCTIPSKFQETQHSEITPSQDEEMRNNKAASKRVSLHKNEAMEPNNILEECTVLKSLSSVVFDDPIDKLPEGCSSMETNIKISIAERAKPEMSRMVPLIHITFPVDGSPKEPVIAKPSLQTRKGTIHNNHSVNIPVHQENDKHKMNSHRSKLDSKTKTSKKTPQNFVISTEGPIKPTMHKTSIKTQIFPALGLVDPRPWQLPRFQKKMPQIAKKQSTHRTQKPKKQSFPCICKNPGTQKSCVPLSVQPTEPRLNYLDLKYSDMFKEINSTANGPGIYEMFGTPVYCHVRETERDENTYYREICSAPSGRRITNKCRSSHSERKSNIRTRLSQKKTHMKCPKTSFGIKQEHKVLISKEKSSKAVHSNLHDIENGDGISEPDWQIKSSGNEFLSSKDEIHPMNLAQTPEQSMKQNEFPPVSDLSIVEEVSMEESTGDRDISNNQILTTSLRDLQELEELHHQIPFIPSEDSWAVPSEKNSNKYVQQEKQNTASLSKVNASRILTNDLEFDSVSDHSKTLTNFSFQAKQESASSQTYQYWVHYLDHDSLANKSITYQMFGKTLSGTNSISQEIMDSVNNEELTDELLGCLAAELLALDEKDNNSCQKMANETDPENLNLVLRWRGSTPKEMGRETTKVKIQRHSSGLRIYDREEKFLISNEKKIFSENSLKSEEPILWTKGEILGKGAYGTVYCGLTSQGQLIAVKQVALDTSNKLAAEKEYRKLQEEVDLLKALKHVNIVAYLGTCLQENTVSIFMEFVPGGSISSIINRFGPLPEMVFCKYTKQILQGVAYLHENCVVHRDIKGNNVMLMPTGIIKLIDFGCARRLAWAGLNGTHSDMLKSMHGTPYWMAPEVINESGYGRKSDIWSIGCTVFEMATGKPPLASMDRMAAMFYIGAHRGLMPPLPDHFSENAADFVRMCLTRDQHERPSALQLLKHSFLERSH
Chain of UniProt P42681 (whole entry, looked up): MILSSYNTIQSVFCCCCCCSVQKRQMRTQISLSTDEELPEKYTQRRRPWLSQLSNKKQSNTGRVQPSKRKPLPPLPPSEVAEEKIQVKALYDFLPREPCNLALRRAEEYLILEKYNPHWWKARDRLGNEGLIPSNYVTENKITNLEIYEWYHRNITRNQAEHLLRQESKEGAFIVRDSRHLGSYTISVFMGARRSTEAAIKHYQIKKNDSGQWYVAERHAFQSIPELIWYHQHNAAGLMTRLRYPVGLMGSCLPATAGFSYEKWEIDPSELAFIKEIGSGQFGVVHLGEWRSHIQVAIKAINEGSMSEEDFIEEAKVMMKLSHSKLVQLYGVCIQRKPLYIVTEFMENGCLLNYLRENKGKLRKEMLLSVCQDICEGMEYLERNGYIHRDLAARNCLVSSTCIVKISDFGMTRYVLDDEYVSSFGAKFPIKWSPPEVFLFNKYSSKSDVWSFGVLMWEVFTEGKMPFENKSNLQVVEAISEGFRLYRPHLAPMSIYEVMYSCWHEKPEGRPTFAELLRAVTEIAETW

Set 1
SMILES: O=C(Nc1ccc(Oc2ccc(F)cc2)cc1)N1CCc2ncccc2[C@H]1c1ccc(F)cc1
Method: competition with immobilised ligand
Tested at: 1 µM
Measurement: remaining binding
target = Dual specificity protein kinase TTK (TTK, Homo sapiens, UniProt P33981); test = cell-free assay; result = 94%
target = Serine/threonine-protein kinase WNK3 (WNK3, Homo sapiens, UniProt Q9BYP7); test = cell-free assay; result = 94%
target = Ribosomal protein S6 kinase alpha-6, C-terminal kinase domain (RPS6KA6, Homo sapiens, UniProt Q9UK32); test = cell-free assay; result = 95%
target = Epidermal growth factor receptor (EGFR, Homo sapiens, UniProt P00533, L858R); test = cell-free assay; result = 96%
target = Epidermal growth factor receptor (EGFR, Homo sapiens, UniProt P00533, del746-750); test = cell-free assay; result = 100%
target = Serine/threonine-protein kinase/endoribonuclease IRE1 (ERN1, Homo sapiens, UniProt O75460); test = cell-free assay; result = 85%
target = Hepatocyte growth factor receptor (MET, Homo sapiens, UniProt P08581, Y1235D); test = cell-free assay; result = 86%
target = Ephrin type-A receptor 7 (EPHA7, Homo sapiens, UniProt Q15375); test = cell-free assay; result = 90%
target = Mitogen-activated protein kinase kinase kinase 19 (MAP3K19, Homo sapiens, UniProt Q56UN5); test = cell-free assay; result = 88%
target = Tyrosine-protein kinase TXK (TXK, Homo sapiens, UniProt P42681); test = binding; result = 100%
target = Serine/threonine-protein kinase MRCK beta (CDC42BPB, Homo sapiens, UniProt Q9Y5S2); test = cell-free assay; result = 88%
target = Casein kinase I isoform delta (CSNK1D, Homo sapiens, UniProt P48730); test = cell-free assay; result = 90%
target = Proto-oncogene tyrosine-protein kinase Src (SRC, Homo sapiens, UniProt P12931); test = cell-free assay; result = 91%
target = Mitogen-activated protein kinase kinase kinase kinase 2 (MAP4K2, Homo sapiens, UniProt Q12851); test = cell-free assay; result = 95%
target = Ephrin type-A receptor 8 (EPHA8, Homo sapiens, UniProt P29322); test = cell-free assay; result = 92%
target = Serine/threonine-protein kinase STK11 (STK11, Homo sapiens, UniProt Q15831); test = cell-free assay; result = 61%
target = Non-receptor tyrosine-protein kinase TYK2, JH1 (TYK2, Homo sapiens, UniProt P29597); test = cell-free assay; result = 95%
target = Serine/threonine-protein kinase 32C (STK32C, Homo sapiens, UniProt Q86UX6); test = cell-free assay; result = 75%
target = Cyclin-dependent kinase 13 (CDK13, Homo sapiens, UniProt Q14004); test = cell-free assay; result = 100%
target = Dual specificity tyrosine-phosphorylation-regulated kinase 1B (DYRK1B, Homo sapiens, UniProt Q9Y463); test = cell-free assay; result = 88%

Set 2
SMILES: O=C(Nc1cnn(-c2csc(C(=O)NC3COC3)c2)c1)Nc1c(F)cccc1Cl
Observed: enzyme activity
Tested at: 5 µM
Measurement: remaining activity
target = Serine/threonine-protein kinase LATS1 (LATS1, Homo sapiens, UniProt O95835); test = inhibitor; result = 93.5%
target = Tyrosine-protein kinase Tec (TEC, Homo sapiens, UniProt P42680); how to read = reference: untreated control; result = 97.3%
target = Serine/threonine-protein kinase PLK4 (PLK4, Homo sapiens, UniProt O00444); test = inhibitor; result = 84.3%
target = Dual specificity tyrosine-phosphorylation-regulated kinase 3 (DYRK3, Homo sapiens, UniProt O43781); how to read = reference: untreated control; result = 99.1%
target = Cyclin-dependent kinase 4, with cyclin D1 (CDK4, Homo sapiens, UniProt P11802); how to read = reference: untreated control; result = 90.2%
target = Proto-oncogene tyrosine-protein kinase ROS (ROS1, Homo sapiens, UniProt P08922); how to read = reference: untreated control; result = 85%
target = Cyclin-dependent kinase 2, with cyclin A1 (CDK2, Homo sapiens, UniProt P24941); how to read = reference: untreated control; result = 91.1%
target = LIM domain kinase 1 (LIMK1, Homo sapiens, UniProt P53667); how to read = reference: untreated control; result = 98.6%

Set 3
Target: Beta-1 adrenergic receptor (ADRB1, Homo sapiens, UniProt P08588)
Chain of UniProt P08588 (whole entry, looked up): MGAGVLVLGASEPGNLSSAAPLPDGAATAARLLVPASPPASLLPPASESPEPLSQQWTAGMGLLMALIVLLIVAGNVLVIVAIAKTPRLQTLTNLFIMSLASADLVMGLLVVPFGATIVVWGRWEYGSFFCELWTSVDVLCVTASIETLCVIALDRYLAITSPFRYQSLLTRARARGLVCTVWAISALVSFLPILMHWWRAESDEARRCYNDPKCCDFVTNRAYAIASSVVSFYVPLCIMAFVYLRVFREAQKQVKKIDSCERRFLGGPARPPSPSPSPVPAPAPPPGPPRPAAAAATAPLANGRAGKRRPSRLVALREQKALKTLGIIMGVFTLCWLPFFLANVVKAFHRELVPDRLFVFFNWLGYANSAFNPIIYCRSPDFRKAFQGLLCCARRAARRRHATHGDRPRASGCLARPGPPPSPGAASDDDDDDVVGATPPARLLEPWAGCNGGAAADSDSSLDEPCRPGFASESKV
Mode: antagonist
Measurement: pIC50
SMILES = Cc1noc2c(NC(C)C)cc(-c3ccccc3)nc12; result = ≤ 4.00
SMILES = CN(C)c1cccc(C(=O)N2CCC3(CC2)NC(=O)N(c2cccc(Cl)c2)N3)c1; result = ≤ 4.00
SMILES = Cn1c(=O)c2c(ncn2CCCNCC(O)c2cc(O)cc(O)c2)n(C)c1=O (centres unmarked); result = ≤ 4.00
SMILES = Cc1nn(C)c2nc(NCCCC3CCOC3)sc12 (centres unmarked); result = ≤ 4.00
SMILES = CCN1CCN(Cc2ccc(Nc3ncc(F)c(-c4cc(F)c5nc(C)n(C(C)C)c5c4)n3)nc2)CC1; result = ≤ 4.00
SMILES = CC(=O)Oc1ccc2cc(-c3nc4c(s3)CCc3ccccc3-4)c(=O)oc2c1; result = ≤ 4.00
SMILES = COc1ccc2c(CSc3nncn3-c3ccccc3)cc(=O)oc2c1; result = ≤ 4.00
SMILES = COc1ccccc1N1CCN(CC[C@H]2CN(C(=O)NC(C)C)CC[C@H]2CC(=O)O)CC1; result = ≤ 4.00
SMILES = O=C(c1cc(N2CCN(c3ccccc3)CC2)nc2ccccc12)N1CCOCC1; result = ≤ 4.00
SMILES = COc1ccc(CN2CC[C@@H]3OCC(=O)N(Cc4c[nH]c5ccccc45)[C@H]3CC2)cc1O; result = ≤ 4.00
SMILES = Cc1ccc(C(=O)N2CCN(c3cccc(Cl)c3)CC2)s1; result = ≤ 4.00

Set 4
Species: human
Medium: microsomes or S9
Tested at: 2 µM
Time: 0.5 h
Measurement: remaining compound
Structure (SMILES) = c1cc2c(cc1OCc1cn(CC3CCCNC3)nn1)CCC2 (centres unmarked); result = 96.9%
Structure (SMILES) = Cc1c(C(=O)N[C@H]2CCOC[C@H]2C2CCOCC2)c2cc(O)ccc2n1C; result = 69.1%
Structure (SMILES) = COc1ccc(/C=N/n2cnnc2)cc1COc1cc(C)c(Cl)cc1C(C)C; result = > 100%
Structure (SMILES) = NC(=O)c1cccc2cc(CN3CCN(c4ccccc4Cl)CC3)oc12; result = 79%
Structure (SMILES) = Cc1nccc(CNc2c(C#N)cnc3c(F)ccc(Cl)c23)n1; result = 12.7%
Structure (SMILES) = COCCCNC(=O)C(C)NS(=O)(=O)c1ccc(Br)cc1 (centres unmarked); result = > 99%
Structure (SMILES) = CS(=O)(=O)N1CCCC1C(=O)Nc1nc2cc3c(cc2s1)OCO3 (centres unmarked); result = 0.0123%

Other studies, line by line
Structure (SMILES) = CCCN1C(=O)[C@H](CC(C)C)NC(=O)[C@@H](N(C)C(=O)[C@H](CC2CCC2)NC(=O)[C@@H]2C[C@@H](F)CN2C(=O)[C@@](C)(O)C(F)(F)F)CCCCNC(=O)C2(CC2)NC(=O)[C@@H]1Cc1cc(Cl)ccc1Cl; system = mouse NCI-H1048 xenograft; conditions = iv, 100 mg/kg once daily, day 14; measurement = tumour volume; result = 418 mm3 and 551 mm3 and 427 mm3 and 539 mm3 and 654 mm3 and 639 mm3 and 449 mm3 and 448 mm3

Some of these lines once more (set 2):
target = Serine/threonine-protein kinase LATS1 (LATS1, Homo sapiens, UniProt O95835); test = inhibitor; result = 93.5%
target = Tyrosine-protein kinase Tec (TEC, Homo sapiens, UniProt P42680); how to read = reference: untreated control; result = 97.3%
target = Serine/threonine-protein kinase PLK4 (PLK4, Homo sapiens, UniProt O00444); test = inhibitor; result = 84.3%
target = Dual specificity tyrosine-phosphorylation-regulated kinase 3 (DYRK3, Homo sapiens, UniProt O43781); how to read = reference: untreated control; result = 99.1%
target = Cyclin-dependent kinase 4, with cyclin D1 (CDK4, Homo sapiens, UniProt P11802); how to read = reference: untreated control; result = 90.2%
target = Proto-oncogene tyrosine-protein kinase ROS (ROS1, Homo sapiens, UniProt P08922); how to read = reference: untreated control; result = 85%
target = Cyclin-dependent kinase 2, with cyclin A1 (CDK2, Homo sapiens, UniProt P24941); how to read = reference: untreated control; result = 91.1%
